Measurements from different studies.
Protocols differ between the studies behind these lines. Numbers after ± are the reported error.
Oprk1: Kappa-type opioid receptor (Oprk1, Mus musculus, UniProt P33534)
MC4R: Melanocortin receptor 4 (MC4R, Homo sapiens, UniProt P32245)
HTR2A: 5-hydroxytryptamine receptor 2A (HTR2A, Homo sapiens, UniProt P28223)
Cnr2: Cannabinoid receptor 2 (Cnr2, Mus musculus, UniProt P47936)
Urease: Urease (Canavalia ensiformis, UniProt P07374)

The Ki of CC[C@H](C)[C@H](NC(=O)[C@H](CCC(=O)O)NC(=O)[C@H](Cc1ccc(N)cc1)NC(=O)[C@@H](C)NC(=O)[C@@H](N)Cc1ccc(O)cc1)C(=O)N[C@H](C(=O)NCC(N)=O)[C@@H](C)CC is reported as greater than 1 µM (Oprk1; ligand displacement, radioligand; cell membranes).
With CC[C@H](C)[C@H](NC(=O)CN)C(=O)N[C@H](C(=O)N[C@@H](CC(N)=O)C(=O)N[C@H](C(=O)N[C@@H](CC(C)C)C(=O)N[C@@H](CCC(N)=O)C(=O)N[C@@H](CCCCN)C(=O)N[C@@H](Cc1ccc(O)cc1)C(=O)N[C@@H](Cc1ccc(O)cc1)C(=O)N[C@H]1CSSC[C@@H]2NC(=O)[C@H](CCCCN)NC(=O)[C@H](CCCNC(=N)N)NC(=O)CNC(=O)[C@H](C)NC(=O)[C@H]([C@@H](C)O)NC(=O)[C@H](CO)NC(=O)[C@@H]3CSSC[C@H](NC(=O)[C@H](CCCNC(=N)N)NC(=O)CNC(=O)CNC(=O)[C@H](CCCNC(=N)N)NC(=O)[C@H](C(C)C)NC(=O)[C@H](CCCNC(=N)N)NC1=O)C(=O)N[C@@H](C)C(=O)N[C@@H](C(C)C)C(=O)N[C@@H](CC(C)C)C(=O)N[C@@H](CO)C(=O)N[C@@H](CSSC[C@@H](C(=O)N[C@@H](CCCNC(=N)N)C(=O)N[C@@H](CCCNC(=N)N)C(=O)N[C@@H](CCCCN)C(=O)N[C@@H](CCCCN)C(N)=O)NC2=O)C(=O)N[C@@H](CC(C)C)C(=O)N1CCC[C@H]1C(=O)N[C@@H](CCCCN)C(=O)N[C@@H](CCC(=O)O)C(=O)N[C@@H](CCC(=O)O)C(=O)N[C@@H](CCC(N)=O)C(=O)N[C@@H]([C@@H](C)CC)C(=O)NCC(=O)N[C@@H](CCCCN)C(=O)N3)[C@@H](C)O)[C@@H](C)CC the Ki was 0.117 µM (MC4R; ligand displacement in cells).
With CC1=C[C@@H](O/C=C2/C(=O)O[C@H]3c4ccccc4C[C@@H]23)OC1=O the Ki was 5.17 µM (RMS3 (Lathyrus oleraceus, UniProt A0A109QYD3); cell-free assay, inhibitor).
COc1c(OCCOCCOCCOCCOCCOCCOCCOc2cccc(C(=O)C3CCN(CCc4ccc(F)cc4)CC3)c2OC)cccc1C(=O)C1CCN(CCc2ccc(F)cc2)CC1 gave a Ki of 0.032 µM (HTR2A; ligand displacement, radioligand).
For O=C(N[C@@H](Cc1ccc(F)cc1)C(=O)CCl)OCc1ccccc1, the Ki was greater than 200 µM (Serine protease 1 (PRSS1, Bos taurus, UniProt P00760)).
For CC[C@H](C)[C@H](NC(=O)CN)C(=O)N[C@H](C(=O)N[C@@H](CC(N)=O)C(=O)N[C@H](C(=O)N[C@@H](CC(C)C)C(=O)N[C@@H](CCC(N)=O)C(=O)N[C@@H](CCC(N)=O)C(=O)N[C@@H](Cc1ccc(O)cc1)C(=O)N[C@@H](Cc1ccc(O)cc1)C(=O)N[C@H]1CSSC[C@@H]2NC(=O)[C@H](CCC(N)=O)NC(=O)[C@H](CCC(N)=O)NC(=O)CNC(=O)[C@H](CCC(N)=O)NC(=O)[C@H]([C@@H](C)O)NC(=O)[C@H](CO)NC(=O)[C@@H]3CSSC[C@H](NC(=O)[C@H](CCCNC(=N)N)NC(=O)CNC(=O)CNC(=O)[C@H](CCCNC(=N)N)NC(=O)[C@H](C(C)C)NC(=O)[C@H](CCC(N)=O)NC1=O)C(=O)N[C@@H](C)C(=O)N[C@@H](C(C)C)C(=O)N[C@@H](CC(C)C)C(=O)N[C@@H](CO)C(=O)N[C@@H](CSSC[C@@H](C(=O)N[C@@H](CCCNC(=N)N)C(=O)N[C@@H](CCCNC(=N)N)C(=O)N[C@@H](CCCCN)C(=O)N[C@@H](CCCCN)C(N)=O)NC2=O)C(=O)N[C@@H](CC(C)C)C(=O)N1CCC[C@H]1C(=O)N[C@@H](CCCCN)C(=O)N[C@@H](CCC(=O)O)C(=O)N[C@@H](CCC(=O)O)C(=O)N[C@@H](CCC(N)=O)C(=O)N[C@@H]([C@@H](C)CC)C(=O)NCC(=O)N[C@@H](CCC(N)=O)C(=O)N3)[C@@H](C)O)[C@@H](C)CC, the Ki was 0.923 µM (MC4R; ligand displacement in cells).
For Cc1cc2c(cc1Cl)-c1c(c(C(=O)NCC34CC5CC(CC(C5)C3)C4)nn1-c1ccc(Cl)cc1Cl)C2, the Ki was 0.3 µM (Cnr2; ligand displacement, radioligand).
For O=C(Nc1cccc(-c2nn[nH]n2)c1)c1cc(-c2ccccc2)cc(C(F)(F)F)c1, the Ki was 79.6 µM (Beta-lactamase CTX-M-14 (Escherichia coli, UniProt Q9L5C7); enzyme activity, inhibitor, absorbance; pH 7).
Cc1cc(O)c(I)c(C)c1C[C@H](N)C(=O)N[C@H](C)C(=O)N[C@@H](Cc1ccccc1)C(=O)N[C@@H](Cc1ccccc1)C(N)=O gave a Ki of 0.298 µM (Oprk1; ligand displacement, radioligand; cell membranes).
C[C@@H](O)[C@H](NC(=O)[C@H](CCCNC(=N)N)NC(=O)[C@H](CCCCN)NC(=O)[C@H](CCCCN)NC(=O)[C@@H](N)CCCNC(=N)N)C(N)=O has a Ki of 0.75 µM (Furin (FURIN, Homo sapiens, UniProt P09958); enzyme activity, inhibitor).
The Ki of C=Cc1cc(OC)c2c(c1)c(=O)oc1c2cc(OC)c2c(O)ccc([C@@H]3O[C@H](C)[C@H](O)[C@@](C)(O)[C@H]3O)c21 is reported as 22.3 µM (Bifunctional protein GlmU (Staphylococcus aureus, UniProt Q5HIH6); enzyme activity, inhibitor, absorbance).
With C[C@H](NC(=O)[C@H](CCC(=O)O)NC(=O)[C@H](CO)NC(=O)[C@H](C)NC(=O)[C@H](CO)NC(=O)CSCCNC(=O)CCNC(=O)[C@H](O)C(C)(C)COP(=O)(O)OP(=O)(O)OC[C@H]1O[C@@H](n2cnc3c(N)ncnc32)[C@H](O)[C@@H]1OP(=O)(O)O)C(N)=O the Ki was 1.1 ± 0.1 µM (ard1, with Naa15 (Schizosaccharomyces pombe, UniProt Q9UTI3); competitive with acetyl-CoA).
CC(=O)N[C@@H](CCCNC(=N)N)C(=O)N[C@@H](Cc1ccc(O)cc1)C(=O)N[C@@H](CCCN/C(N)=N/C(=O)NCCCCN)C(=O)N[C@@H](CC(C)C)C(=O)N[C@@H](CCCNC(=N)N)C(=O)N[C@@H](Cc1ccc(O)cc1)C(N)=O gave a Ki of greater than 5 µM (Neuropeptide Y receptor type 2 (NPY2R, Homo sapiens, UniProt P49146); ligand displacement, radioligand).
With [2H]C([2H])(C)N1CCN(C2=Nc3cc(Cl)ccc3Nc3ccccc32)CC1 the Ki was 0.28 µM (5-hydroxytryptamine receptor 2C (HTR2C, Homo sapiens, UniProt P28335); ligand displacement, radioligand).
The Ki of CCCCCc1cc(O)c2c(c1)OC(C)(C)C1CCC(C(=O)OC3OC(C(=O)O)C(O)C(O)C3O)=CC21 (centres unmarked) is reported as 2 ± 1.2 µM (Cytochrome P450 2B6 (CYP2B6, Homo sapiens, UniProt P20813); inhibitor; HEK293 overexpressing CYP2B6, recombinant microsomes; pH 7.4, total concentration, with: bupropion 12.5 to 100 µM).
With NCP(=O)(O)O the Ki was 240 µM (Urease; enzyme activity, inhibitor, absorbance; pH 7).
The Ki of COc1c(OCCOCCOCCOCCOCCOCCOCCOCCOc2cccc(C(=O)C3CCN(CCc4ccc(F)cc4)CC3)c2OC)cccc1C(=O)C1CCN(CCc2ccc(F)cc2)CC1 is reported as 0.0044 µM (HTR2A; ligand displacement, radioligand).
For CC[C@H](C)[C@H](NC(=O)CN)C(=O)N[C@H](C(=O)N[C@@H](CC(N)=O)C(=O)N[C@H](C(=O)N[C@@H](CC(C)C)C(=O)N[C@@H](CCC(N)=O)C(=O)N[C@@H](CCCCN)C(=O)N[C@@H](Cc1ccc(O)cc1)C(=O)N[C@@H](C)C(=O)N[C@H]1CSSC[C@@H]2NC(=O)[C@H](CCCCN)NC(=O)[C@H](CCCNC(=N)N)NC(=O)CNC(=O)[C@H](CCCNC(=N)N)NC(=O)[C@H]([C@@H](C)O)NC(=O)[C@H](CO)NC(=O)[C@@H]3CSSC[C@H](NC(=O)[C@H](CCCNC(=N)N)NC(=O)CNC(=O)CNC(=O)[C@H](CCCNC(=N)N)NC(=O)[C@H](C(C)C)NC(=O)[C@H](CCCNC(=N)N)NC1=O)C(=O)N[C@@H](C)C(=O)N[C@@H](C(C)C)C(=O)N[C@@H](CC(C)C)C(=O)N[C@@H](CO)C(=O)N[C@@H](CSSC[C@@H](C(=O)N[C@@H](CCCNC(=N)N)C(=O)N[C@@H](CCCNC(=N)N)C(=O)N[C@@H](CCCCN)C(=O)N[C@@H](CCCCN)C(N)=O)NC2=O)C(=O)N[C@@H](CC(C)C)C(=O)N1CCC[C@H]1C(=O)N[C@@H](CCCCN)C(=O)N[C@@H](CCC(=O)O)C(=O)N[C@@H](CCC(=O)O)C(=O)N[C@@H](CCC(N)=O)C(=O)N[C@@H]([C@@H](C)CC)C(=O)NCC(=O)N[C@@H](CCCCN)C(=O)N3)[C@@H](C)O)[C@@H](C)CC, the Ki was 0.135 µM (MC4R; ligand displacement in cells).
The Ki of CC(C)C[C@H](NC(=O)[C@@H]1CCCN1C(=O)[C@@H](N)CCCCN)C(=O)N[C@@H](CCC(=O)O)C(=O)N[C@H](CN[C@@H](Cc1ccc(O)cc1)C(=O)N[C@@H](CCCNC(=N)N)C(=O)N[C@H](C(=O)O)C(C)C)Cc1ccccc1 is reported as 38 ± 6 µM (Plasmepsin I (PMI, Plasmodium falciparum, UniProt Q7KQM4)).
CP(=O)(O)CNCc1ccccc1 gave a Ki of 571 µM (Urease; enzyme activity, inhibitor, absorbance; pH 7).
With O[C@@H]1[C@@H](O)[C@H](O[C@@H]2OC[C@@H](O)[C@H](O)[C@H]2O)C[C@H]2N[C@@H]12 the Ki was 71.7 µM (Exo-1,4-beta-xylosidase xlnD (xlnD, Emericella nidulans, UniProt Q5BAS1); covalent inhibitor; Aspergillus nidulans; pH 4.5, ambient, with: 4MU-β-D-xyloside).
The Ki of CC(=O)NCP(=O)(O)O is reported as greater than 1000 µM (Urease; inhibitor; pH 7).
For Cc1cc2c(cc1Cl)-c1c(c(C(=O)NC3CC4CC(C3C)C4(C)C)nn1-c1ccc(Cl)cc1Cl)C2 (centres unmarked), the Ki was 0.243 µM (Cnr2; ligand displacement, radioligand).
